# Measurements collected from several papers.
# Compare with care: the assays were run in different laboratories.
Compound,test,system,conditions,quantity,result
C[C@@H](c1ccc2nccn2c1)n1nnc2ncc(-c3cnn(C)c3)nc21,refers to: treatment-related grade ≥3 Fatigue,EGFR-mutant MET-altered NSCLC,"oral, dose not given, all",patients with adverse events,1%
CNC(=O)c1ccc(-c2cnc3ncc(Cc4ccc5ncccc5c4)n3n2)cc1F,refers to: Diarrhea,cancer patients,"oral, dose not given, dose escalation, grade 3-4",patients with adverse event,0%
O=C(Nc1nc2cccc(-c3ccc(CN4CCS(=O)(=O)CC4)cc3)n2n1)C1CC1,refers to: angina pectoris,rheumatoid arthritis patients,"oral, 75 mg once daily, 4 weeks, any relatedness",patients with adverse event,0%
FC(F)(F)c1ccc(CNc2ccc(Cc3c[nH]c4ncc(Cl)cc34)cn2)cn1,refers to: blood alkaline phosphatase increased,non-TGCT solid tumour patients,"oral, 1000 mg/day, grade 3 or higher",patients with treatment-related adverse event,2%
COc1cc(Nc2ncc3c(n2)-c2ccc(Cl)cc2C(c2c(F)cccc2OC)=NC3)ccc1C(=O)O,"refers to: Dyspnea, all grades","cancer patients, phase 1/2","oral, dose not given, added: pembrolizumab",patients with adverse event,17%
CCOc1c([C@H](C)n2nc(C)c3c(N)ncnc32)cc(Cl)c(F)c1[C@@H]1CNC(=O)C1,refers to: QTcF ≤450 ms,previously treated B-cell malignancy,"oral, 15 mg once daily, overall population",patients,100%
C[C@@H](Nc1cc(F)cc(F)c1)c1cc(C(=O)N(C)C)cc2c(=O)cc(N3CCOCC3)oc12,"CTCAE v4, refers to: maculopapular rash",patients with advanced solid tumours,"oral, dose not given, phase I dose finding",patients with related SAE,3.2%
Cc1cc(NC2CCN(C(=O)OC3CCN(C(=O)/C=C/CN(C)C)C3)CC2)n2ncc(C(C)C)c2n1 (stereo not drawn),"Phase I dose escalation CTCAE v4.0, refers to: platelet count decreased",patients with advanced solid tumours,"dose not given, TIW dosing grade 3 or higher",patients with adverse event,0%
COc1ccc([C@@H](O)c2cc(-c3ncnc4cc(N5CCOCC5)ccc34)c(F)cc2Cl)nn1,refers to: Diarrhea,locally advanced rectal cancer patients,"dose not given, all dose groups, added: capecitabine plus radiotherapy",patients with drug-related AE,58%

# Repeated from above:
Compound,test,system,conditions,quantity,result
C[C@@H](c1ccc2nccn2c1)n1nnc2ncc(-c3cnn(C)c3)nc21,refers to: treatment-related grade ≥3 Fatigue,EGFR-mutant MET-altered NSCLC,"oral, dose not given, all",patients with adverse events,1%
